{"data": "Published values of several laboratories", "note": "± marks the error that the study gave."}
{"Compound": "Clc1ccc(C(c2c[nH]c3ccccc23)c2c[nH]c3ccccc23)cc1", "system": "C57BL/6 mouse, male, midbrain", "conditions": "oral, 25 mg/kg", "Cmax": "3620 ± 1430 ng/g"}
{"Compound": "O=c1[nH]c2ccccc2n1CCCCCN1CCN(c2ccc(F)cc2)CC1", "system": "C57BL/6 mouse, plasma", "conditions": "subcutaneous, 5 mg/kg", "Cmax": "2900 ± 800 ng/mL"}
{"Compound": "N=C(N)NCCC[C@@H]1NC(=O)[C@H](Cc2c[nH]c3ccccc23)NC(=O)[C@@H](CC2CCCCC2)NC(=O)[C@@H]2CCCN2C(=O)[C@@H](NC(=O)CCc2ccccc2)CCCNC1=O", "system": "C57BL/6J mouse, plasma", "conditions": "intraperitoneal, 1 mg/kg, single dose", "Cmax": "5950 ng/mL"}
{"Compound": "O=C(N[C@@H](Cc1coc2ccccc12)B(O)O)[C@@H]1C[C@H]2CC[C@@H]1O2", "system": "mouse, U266B1 xenograft, plasma", "conditions": "oral, 30 mg/kg, total, single dose", "Cmax": "11.7 µM"}
{"Compound": "Cc1ccc(CNC(=O)Cc2ccc(-c3ccc(OCCN4CCOCC4)cc3)cn2)cc1", "system": "ICR mouse", "conditions": "oral, 10 mg/kg", "Cmax": "1540 ± 330 ng/mL"}
{"Compound": "COc1ccc2ccc3c(c2c1)C=[N+]1C2CCCCC2[N+]2=Cc4ccc(OCCN5CCCCC5)cc4[O][Au-]21[O]3.F[P-](F)(F)(F)(F)F (stereo not drawn)", "assay": "ICP-MS, refers to: gold", "system": "mouse, serum", "conditions": "intraperitoneal, 5 mg/kg", "Cmax": "1770 ng/mL"}
{"Compound": "CCCCCCCCCCCCCCCC(=O)NCCOCCOCCOCCOCCOCCOCCOCCOCCC(=O)NCCCC[C@H](NC(=O)CNC(=O)[C@@H]1CSSC[C@H](N)C(=O)N[C@@H](Cc2ccc(O)cc2)C(=O)N[C@@H]([C@@H](C)CC)C(=O)N[C@@H](CCC(N)=O)C(=O)N[C@@H](CC(N)=O)C(=O)N1)C(=O)NCC(N)=O", "system": "male C57BL/6J mouse, plasma", "conditions": "subcutaneous, 20 mg/kg, depot formulation", "Cmax": "0.552 µM"}
{"Compound": "COc1cc(C(=O)OCCCN2CCCN(CCCOC(=O)c3cc(OC)c(OC)c(OCc4ccc([N+](=O)[O-])cc4)c3)CC2)cc(OC)c1OC", "system": "male CD-1 mouse, plasma", "conditions": "subcutaneous, dose not given", "Cmax": "164 ng/mL"}
{"Compound": "N#CC1(c2ccc3c(N)ncnn23)OC(COP(=O)(O)O)C(O)C1O (stereo not drawn)", "assay": "LC-MS/MS", "system": "CD-1 mouse, lung", "conditions": "oral, 100 mg/kg of remdesivir", "Cmax": "937 nmol/kg"}
{"Compound": "O=c1c(-c2cnn(-c3ccc(Cl)cc3)c2)c(C(F)(F)F)oc2c(O)c(O)ccc12", "system": "mouse", "conditions": "intraperitoneal, 100 mg/kg, vehicle DMSO", "Cmax": "~35 µM"}
{"Compound": "CC(C)N(P(c1ccccc1)c1ccccc1)P(c1ccccc1)c1ccccc1.Cc1ccc(C(C)C)cc1.F[B-](F)(F)F.[Cl][Ru+]", "assay": "ICP-MS, refers to: ruthenium", "system": "BALB/c nude mouse, serum", "conditions": "intraperitoneal, 5 mg/kg", "Cmax": "53.9 ng/mL"}
{"Compound": "C=CC(=O)Nc1cc(Nc2nccc(-n3ccc4nc(OC)ccc43)n2)c(OC)cc1N(C)CCN(C)C", "system": "BALB/c nude mouse, H1975 xenograft, tumour", "conditions": "oral, 60 mg/kg", "Cmax": "4120 ng/g"}
{"Compound": "COc1ccc(NC(=O)N2CCCCN3[C@H](CN(C)C)[C@H](c4ccc(C#Cc5ccccc5)cc4)[C@@H]3C2)cc1", "system": "CD-1 mouse, brain", "conditions": "oral, 10 mg/kg, single dose", "Cmax": "1790 ng/g"}
{"Compound": "C=CC(=O)Nc1cccc(-c2cnc3[nH]cc(C(=O)NC(C)(C)C)c3n2)c1", "system": "mouse NOD/SCID female, plasma", "conditions": "oral, 50 mg/kg", "Cmax": "1000 ng/mL"}
{"Compound": "COc1ccc(NC(=O)N2CCCN3CCC(c4ccc(C#Cc5ccccc5)cc4)C3C2)cc1 (stereo not drawn)", "system": "CD-1 mouse, plasma", "conditions": "oral, 10 mg/kg, single dose", "Cmax": "325 ng/mL"}
{"Compound": "O=S(=O)(N[C@@H]1CCC[C@H](N2c3ccccc3Oc3ccccc32)[C@H]1O)c1ccc(OC(F)(F)F)cc1", "system": "mouse, plasma", "conditions": "oral, 100 mg/kg", "Cmax": "~14 µM"}
{"Compound": "NC(=O)c1ccc(C(=O)NOCc2ccc(Sc3cccc(Cl)c3)c(C(F)(F)F)c2)cc1", "system": "male ICR mouse, plasma", "conditions": "intraperitoneal, 30 mg/kg", "Cmax": "14300 ng/mL"}
{"Compound": "Cc1ccc(C(C)C)cc1.O=C(N=P(c1ccccc1)(c1ccccc1)c1ccccc1)c1ccccn1.[Cl-].[Cl-].[Ru+2]", "assay": "refers to: ruthenium", "system": "NOD scid mouse, plasma", "conditions": "intraperitoneal, 5 mg/kg", "Cmax": "2620 ng/mL"}
{"Compound": "CCc1nc(N)nc(N)c1C#C[C@H](C)c1cc(-c2cc(C)nc(C)c2)ccc1Cl", "system": "mouse, plasma", "conditions": "oral, 16 mg/kg", "Cmax": "400 ng/mL"}
{"Compound": "CCNC(=O)c1noc(-c2cc(C(C)C)c(O)cc2O)c1NC(=O)CCN1CCOCC1", "system": "CD1 nude mouse, A-431 xenograft, lung", "conditions": "intraperitoneal, 80 mg/kg single", "Cmax": "4890 ng/mL"}
{"Compound": "Cc1ccc(NC(=O)N2CCCN3CCC(c4ccc(C#CC5(O)CCCCC5)cc4)C3C2)cc1 (stereo not drawn)", "system": "CD-1 mouse, brain", "conditions": "oral, 10 mg/kg, single dose", "Cmax": "87 ng/g"}
{"note": "Some of these lines once more:"}
{"Compound": "Cc1ccc(CNC(=O)Cc2ccc(-c3ccc(OCCN4CCOCC4)cc3)cn2)cc1", "system": "ICR mouse", "conditions": "oral, 10 mg/kg", "Cmax": "1540 ± 330 ng/mL"}
